Published values gathered from unrelated publications.
Lines come from different studies, so protocols differ. “And” joins repeats or separate records; there may be more than shown.
Target: LIM domain kinase 1 (LIMK1, Homo sapiens, UniProt P53667)

Structure (SMILES)	assay	system	conditions	scale	quantity	result
CNC(=O)C1CCN(c2cc(C)c(F)cc2NC(=O)c2ccc(-c3cc(O)ccc3C)c(C)c2)CC1	binding, competition with immobilised ligand	–	1 µM	–	remaining binding	100%
N[C@H]1CC[C@H](Nc2nccc(-c3cccnc3Oc3ccc(NC(=O)NC4CC4)c4ccccc34)n2)CC1	kinobead competition pulldown	HEK293/HCT116 lysate mixture	10 µM, 1 h, 4 °C	lower = stronger competition	log2 LFQ intensity	24.3 and 24.4
COc1ccc(C(=O)/C=C/c2ccccc2-c2c[nH]c3ccc(C#N)cc23)c(O)c1	enzyme activity, inhibitor	–	20 µM	–	inhibition	-3%
C[C@H]1CN(C(=O)c2cn(-c3ccnc(N)n3)c3cc(C#CC4(O)CCCCC4)ccc23)CCN1	cell-free assay, TR-FRET	–	1 µM	–	inhibition	-6%
CCn1cc(C(=O)O)c(=O)c2c(N)c(F)c(NC3CCCCC3)cc21	kinase activity	–	0.1 µM, added: ATP at Km	–	inhibition	-0.7%
CCN1CCN(Cc2ccc(C(=O)Nc3ccc(C)c(NCc4cnc5[nH]ccc5c4OC)c3)cc2C(F)(F)F)CC1	binding, competition with immobilised ligand	–	1 µM	–	remaining binding	50%
COc1ccc(NC(=O)Nc2ccc3c(c2)C(=O)N(C(C)CO)CC(C)C(CN(C)Cc2ccc4c(c2)OCO4)O3)cc1 (stereo not shown)	kinase activity, KinaseProfiler	–	0.03 µM, species human	reference: control	remaining activity	109%
CC(C)=CC1OC(C)(C)C2C=C3C(=O)C(Cl)=CC(O)C3C3C(O)C4OC4C(=O)C132 (stereo not shown)	cell-free assay, competition with immobilised ligand	–	10 µM	–	remaining binding	100%
COc1cc(Nc2nccc(-c3cnn4nc(OC)ccc34)n2)cc(C(F)(F)F)c1	binding, competition with immobilised ligand	–	1 µM	–	remaining binding	99%
O=C=[N][Ru-4]123([n]4c5ccc(O)cc5c5c6c(c7cc(F)c[n+]1c7c54)C(=O)NC6=O)[S+]1CC[S+]2CC[S+]3CC1 (stereo not shown)	enzyme activity	–	100 nM, human enzyme, added: 10 µM ATP	reference: untreated	remaining activity	103%
CNC(=O)C[C@H](Cc1ccc(C#N)cc1)NC(=O)c1cc(-c2ccc(CN[C@H](C)c3ccc(C)cc3)o2)ccc1Cl	enzyme activity, inhibitor	–	1 µM	–	activity vs control	102%
COc1c(Cl)cccc1Nc1c(-c2ccncc2C#C[C@@]2(C)CCCN2C(=O)/C=C/CN(C)C)[nH]c2c1C(=O)NCC2	binding, competition with immobilised ligand	–	3 µM	–	remaining binding	100%
NC(=O)C[C@H]1CCc2sc3ncnc(O[C@H]4CC[C@H](N5CCOCC5)CC4)c3c21	enzyme activity, inhibitor	–	10 µM	–	inhibition	8%
CN1CCN(Cc2ccc(-c3ccc(CO[C@H]4CCC[C@@H]4NC(=O)c4cc(-c5cnn(C)c5)cnc4N)cc3)cc2)CC1	enzyme activity, inhibitor	–	0.1 µM	–	inhibition	4%
C=CC(=O)Nc1cccc(-c2cnc3[nH]cc(C(=O)NC(C)(C)C)c3n2)c1	enzyme activity, inhibitor	–	0.1 µM	–	inhibition	34%
C=CC(=O)N1CCc2ccc(-n3c(=O)ccc4cnc5ccc(-c6cnn(C)c6)cc5c43)cc21	KINOMEscan	–	1 µM	reference: DMSO control	remaining binding	100%

Excerpt of the above:
Structure (SMILES)	assay	system	conditions	scale	quantity	result
C=CC(=O)Nc1cccc(-c2cnc3[nH]cc(C(=O)NC(C)(C)C)c3n2)c1	enzyme activity, inhibitor	–	0.1 µM	–	inhibition	34%
